Results collected from several papers.
Lines come from different studies, so protocols differ. ± gives the spread as reported.
Cell line: HeLa

Structure (SMILES)	test	system	conditions	how to read	endpoint	value
O=C(Cc1ccc(-c2ccc(OCCN3CCOCC3)cc2)cn1)NCc1ccc(F)cc1	western blot, measured: phospho-Src	–	50 nM, 6 h	–	protein level	decreased
Clc1ccc(C=[N+]2N=C(Nc3ccccc3)[S][Pt-]2([Cl])[Cl])s1	altered cell morphology, microscopy	–	confluent cultures	–	minimal cytotoxic concentration	100 µM
CC(C)(C)c1cc2c(O)c(c1)Cc1cc(C(C)(C)C)cc(c1OCC(=O)Nc1ccccn1)Cc1cc(C(C)(C)C)cc(c1O)Cc1cc(C(C)(C)C)cc(c1OCC(=O)Nc1ccccn1)COC2	cell growth or viability, MTT	–	15 µM, 72 h	–	inhibition	28%
CCCCN(CCCC)CC(O)COc1c2ccoc2c(OC)c2oc(CC)cc(=O)c12 (centres unmarked)	annexin V/7-AAD flow cytometry	–	IC50, 72 h	–	late apoptotic or necrotic cells	44.9%
Cc1ccc2c(Cl)cc(Cl)c([O-])c2n1.Cc1ccc2c(Cl)cc(Cl)c([O-])c2n1.[Co+2].c1ccc(-c2ccccn2)nc1	–	–	4.53 µM, 24 h	–	mitochondrial membrane potential	decreased
CNC(=O)c1c(C)oc2cc(Oc3ncnc4cc(OC)c(OCCCCCCC(=O)NO)cc34)ccc12	annexin V/7-AAD flow cytometry	–	3 µM, 48 h	–	apoptotic cells	24.5%
O=c1c(/C=N/NC(=S)N/N=C/c2cc(Cl)ccc2O)coc2ccccc12	western blot, measured: phospho-ERK1/2	–	50 µM, 24 h	–	reduction in ERK1/2 phosphorylation	~75%
O=c1c(Br)c2oc3c(CN(Cc4ccccn4)Cc4cnccn4)c(O)ccc3nc-2c2ccccc12	fluorescence microscopy	–	5 µM, 5 min, with: 25 µM Zn2+ pyrithione	–	fluorescence increase	~6 fold
Cc1ccc2oc(=O)c(-c3nc4cnccc4[nH]3)cc2c1	cell growth or viability	–	72 h	–	EC50	1490 nM
COc1ccc(-c2cc(COC3c4cc5c(cc4C(c4cc(OC)c(OC)c(OC)c4)C4C(=O)OCC34)OCO5)on2)cc1 (centres unmarked)	cell growth or viability, SRB	–	48 h	–	GI50	320 nM
C=C1C(=O)OC2C=C(C)CCC=C(C(=O)OC(C)C(C)(O)C(=O)OC3C(OC(C)=O)C(C(=O)OC)=CCCC(C)=CC4OC(=O)C(=C)C43)CC(OC(=O)C(C)=CC)C12 (centres unmarked)	PI staining flow cytometry	–	3 µM, 48 h	–	sub-G1 cells	10%
COc1cc(C(=O)c2[nH]c(N)nc2-c2cccs2)cc(OC)c1OC	immunofluorescence, measured: microtubules	–	200 nM, 2 h	–	reduction of microtubule intensity	33 ± 8%
CC1(C)CC2C3=CCC4C5(C)CCC(O)C(C)(CO)C5CCC4(C)C3(C)CC(O)C2(CO)C(O)C1O (centres unmarked)	CCK-8	–	up to 80 µM	–	growth inhibition	inactive
COc1cc([C@@H]2c3cc4c(cc3[C@@H](OCc3cc(-c5ccc(C)cc5)no3)[C@H]3COC(=O)C23)OCO4)cc(OC)c1OC (some centres unmarked)	cell growth or viability, SRB	–	48 h	–	GI50	3920 nM
Cc1cc(/C=C2\CN(C(C)C)C/C(=C\c3cc(C)c(O)c(C)c3)C2=O)cc(C)c1O	PI flow cytometry	–	2.5 µM, 24 h	–	G2/M phase cells	18.9 ± 2.9%
COc1cc2c(=O)c(-c3ccc4c(c3)OCO4)coc2c2c1OC(C)(C)C=C2	annexin V/PI flow cytometry	–	5 µM, 48 h	–	apoptotic cells	36.3%
C[C@@H]1O[C@H]2O[C@@H]3C4(O)C(=O)c5cccc(O)c5C(=O)C4(O)O[C@]3(C)[C@]21O (some centres unmarked)	cell growth or viability, MTT	–	48 h	–	EC50	30.5 µg/mL
O=S([O-])c1ccccc1N=Cc1ccccc1[O-].[Cu+2].c1c[nH]cn1	protein expression, Western blot	–	1, 2 and 3 µM, 24 h	–	cleaved caspase-9 level	increased
CCOc1cc(N2CCC(O)CC2)ccc1Nc1ncc2c(n1)N(C)c1ccccc1C(=O)N2C	annexin V/PI flow cytometry	–	5 µM, 24 h	relative to: DMSO	late apoptotic cells increase	4.6%

Structure (SMILES)	test	system	conditions	how to read	endpoint	value
S=c1n(-c2ccccc2)c2c3ccccc3nc3[n+]2[n]1[Ir-3]12([S]3)([c]3cccc4ccc5ccc[n+]1c5c34)[c]1cccc3ccc4ccc[n+]2c4c13	–	–	4.5 nM, light irradiation	–	apoptotic cells	56.2%
O=C1C[C@@H](c2ccccc2)Oc2c(Cc3ccccc3O)c(O)cc(O)c21	MTT	–	concentration not given, 72 h	–	cytotoxicity	inactive
O=C(/C=C/c1ccccc1)Oc1ccc2c(c1)O/C(=C\C=C\c1ccccc1)C2=O	Western blot	–	concentration not given, 24 h	–	mTOR level	no effect
[Cl][Pd-]1([Cl])[S]C(Nc2ccccc2)=N[N+]1=Cc1cccs1	altered cell morphology, microscopy	–	confluent cultures	–	minimal cytotoxic concentration	> 100 µM
CCCc1c(O)c(O)cc(C(=O)O)c1COC1OC(CO)C(O)C(O)C1O (centres unmarked)	Wnt/β-catenin signalling, RT-qPCR, measured: AXIN2 and B9L	–	25 µM, 6 h, with: LiCl 20 mM	relative to: TBP	mRNA level	no effect
O=c1c(/C=N/NC(=S)N/N=C/c2ccccc2O)coc2ccccc12	DHE flow cytometry	–	1 µM, 24 h	relative to: control	superoxide level	150 to 160%
COCCOCCOc1ccc([P+](Cc2ccc(C3=C4C(C)=CC(C)=[N+]4[B-](F)(F)n4c(C)cc(C)c43)cc2)(c2ccc(OCCOCCOC)cc2)c2ccc(OCCOCCOC)cc2)cc1	flow cytometry	–	concentration not given, 1 h, with: CCCP 10 µM	–	emission intensity decrease	36%
O=C(O)c1ccccc1-c1c2ccc(=O)cc-2oc2cc(O)ccc12	resazurin	–	concentration not given	–	viability	no effect
CC(C)CCOc1cc(C[n+]2cn(CCC(C)C)c3ccccc32)c(OCCC(C)C)c2ccccc12	annexin V/PI flow cytometry	–	5 µM, 24 h	relative to: DMSO	late apoptotic cells increase	6.3%
[Cl][Pd-2]1([Cl])[N+](=Cc2ccc[nH]2)Cc2cccc[n+]21	MTT	–	100 µg/mL, 24 h	–	viability reduction	> 80%
O=[N+]([O-])c1ccc(NC(=S)N/N=C/c2cccs2)cc1	altered cell morphology, microscopy	–	confluent cultures	–	cytotoxic concentration	20 µM
CC(C)(C)c1ccc(C(=O)Oc2ccc3c(-c4ccccc4C(=O)O)c4ccc(=O)cc-4oc3c2)cc1	HPLC-MS/MS	–	50 µM, 24 h	–	mRNA m6A level	increased
O=C(CCCCCCC(=O)Nc1ccccc1)NO	cell growth or viability, XTT	–	72 h	–	GI50	2840 nM
CC(C)(C)c1cc2c(O)c(c1)Cc1cc(C(C)(C)C)cc(c1OCC(=O)Nc1cccc3cccnc13)Cc1cc(C(C)(C)C)cc(c1O)Cc1cc(C(C)(C)C)cc(c1OCC(=O)Nc1cccc3cccnc13)COC2	cell growth or viability, MTT	–	15 µM, 72 h	–	inhibition	71%
CC(C)[C@@H]1NC(=O)[C@H](Cc2ccc(OP(=O)(O)O)cc2)NC(=O)[C@H](CCCNC(=N)N)NC(=O)[C@H](CCCNC(=N)N)NC(=O)[C@@H]2CCCN2C(=O)[C@H]2CCCN2C(=O)[C@@H](C)NC(=O)[C@H](C)NC(=O)[C@H](Cc2ccccc2)NC(=O)[C@H](CC(N)=O)NC1=O	flow cytometry	NF-labelled via miniPEG-Lys at Asn	5 µM, 2 h	relative to: CPP9 cyclo(fΦRrRrQ) as 100%	cytosolic entry efficiency	2%
COc1ccc(CCC(=O)Nc2nc3ccc(Cl)cc3s2)cc1OC	shotgun lipidomics	–	10 µM, 18 h	–	free cholesterol level	no effect
CC(C)(C)c1cc2c(O)c(c1)Cc1cc(C(C)(C)C)cc(c1OCC(=O)Nc1cccc3ncccc13)Cc1cc(C(C)(C)C)cc(c1O)Cc1cc(C(C)(C)C)cc(c1OCC(=O)Nc1cccc3ncccc13)COC2	cell growth or viability, MTT	–	15 µM, 72 h	–	inhibition	18%
[Cl][Pd-]1([Cl])[S]C(Nc2ccccc2)=N[N+]1=Cc1ccc(-c2ccccc2)s1	altered cell morphology, microscopy	–	confluent cultures	–	minimal cytotoxic concentration	100 µM
CC1=[N+]2N=C(c3ccccc3)[O][Pd-2]2([Cl])[O+]=C2Oc3ccccc3C=C21 (centres unmarked)	flow cytometry	–	IC50, 24 h	–	S phase cells	35.4%

Repeated from above:
Structure (SMILES)	test	system	conditions	how to read	endpoint	value
C=C1C(=O)OC2C=C(C)CCC=C(C(=O)OC(C)C(C)(O)C(=O)OC3C(OC(C)=O)C(C(=O)OC)=CCCC(C)=CC4OC(=O)C(=C)C43)CC(OC(=O)C(C)=CC)C12 (centres unmarked)	PI staining flow cytometry	–	3 µM, 48 h	–	sub-G1 cells	10%
COc1cc(C(=O)c2[nH]c(N)nc2-c2cccs2)cc(OC)c1OC	immunofluorescence, measured: microtubules	–	200 nM, 2 h	–	reduction of microtubule intensity	33 ± 8%
CC1(C)CC2C3=CCC4C5(C)CCC(O)C(C)(CO)C5CCC4(C)C3(C)CC(O)C2(CO)C(O)C1O (centres unmarked)	CCK-8	–	up to 80 µM	–	growth inhibition	inactive
COc1cc([C@@H]2c3cc4c(cc3[C@@H](OCc3cc(-c5ccc(C)cc5)no3)[C@H]3COC(=O)C23)OCO4)cc(OC)c1OC (some centres unmarked)	cell growth or viability, SRB	–	48 h	–	GI50	3920 nM
Cc1cc(/C=C2\CN(C(C)C)C/C(=C\c3cc(C)c(O)c(C)c3)C2=O)cc(C)c1O	PI flow cytometry	–	2.5 µM, 24 h	–	G2/M phase cells	18.9 ± 2.9%
COc1cc2c(=O)c(-c3ccc4c(c3)OCO4)coc2c2c1OC(C)(C)C=C2	annexin V/PI flow cytometry	–	5 µM, 48 h	–	apoptotic cells	36.3%
